{"data": "Measurements gathered from unrelated publications", "note": "Every numbered part comes from another study and shows a few of its results, in no order."}
{"data": "Study 1", "target": "Phosphate system positive regulatory protein PHO4, full length, GST-tagged (PHO4, Saccharomyces cerevisiae, UniProt P07270, residues 1-312)", "method": "competition protein-binding microarray", "molecule type": "double-stranded DNA, one strand shown", "sample": "in vitro", "tested at": "2 µM", "notes": "whole 60-bp probe, lowest competitor level", "with": "Cbf1 competitor, 0.05 µM", "direction": "higher = stronger binding", "shared flanks, not repeated": "… GTCTTGATTCGCTTGACGCTGCTG", "Residues (chain)": "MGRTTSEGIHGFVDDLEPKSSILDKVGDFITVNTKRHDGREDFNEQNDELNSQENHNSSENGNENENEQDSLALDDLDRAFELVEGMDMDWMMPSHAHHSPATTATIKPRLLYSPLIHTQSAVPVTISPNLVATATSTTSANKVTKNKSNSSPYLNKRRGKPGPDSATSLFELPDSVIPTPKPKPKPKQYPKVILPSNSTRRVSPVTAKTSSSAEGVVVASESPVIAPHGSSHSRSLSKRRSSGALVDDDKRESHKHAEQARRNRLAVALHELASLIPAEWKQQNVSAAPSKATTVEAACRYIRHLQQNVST"}
{"Sequence": "CCTTCCACATTGCGTACCGTGACGGTGGCGGAATTT", "fluorescence intensity [a.u.]": 5430}
{"Sequence": "CCTCATGGAGATGAGCACATGCTACAACTAATAACG", "fluorescence intensity [a.u.]": 12200}
{"Sequence": "AATGCTGAGAGTAGGCACATGGAGTAGCTTGAGTCA", "fluorescence intensity [a.u.]": 8840}
{"Sequence": "AGAGCGTCGTTTGCTTACGTGATGGTTAAGTGCCTT", "fluorescence intensity [a.u.]": 3780}
{"Sequence": "CGGGGTTAAGTTTGTATAGTGGGTGGCTTGCAGCAG", "fluorescence intensity [a.u.]": 4410}
{"Sequence": "CGTTCAAAGCCTTTTCACGTTGAGCATCAGCCTTAG", "fluorescence intensity [a.u.]": 6500}
{"data": "Study 2", "target": "Sal-like protein 4, full length isoform B (SALL4, Homo sapiens, UniProt Q9UJQ4-2, residues 1-616)", "method": "universal PBM", "molecule type": "double-stranded DNA, one strand shown", "sample": "in vitro", "tested at": "not given", "notes": "8-mer, flanks averaged, mean of replicates", "direction": "higher = stronger binding"}
{"Sequence": "AAGAGGAC", "E-score": -0.105}
{"Sequence": "CTCGACGC", "E-score": -0.202}
{"Sequence": "ATTTACCG", "E-score": 0.0861}
{"Sequence": "CCAATCGA", "E-score": -0.0524}
{"data": "Study 3", "target": "RNA binding protein fox-1 homolog 2, RRM domain, GST-SBP tag (RBFOX2, Homo sapiens, UniProt O43251-10, residues 100-194)", "method": "RNA Bind-n-Seq", "molecule type": "RNA", "sample": "in vitro", "tested at": "365 nM", "notes": "natural RNA segment, single round, ends assumed", "relative to": "no-protein control", "direction": "higher = stronger binding", "shared flanks, not repeated": "GGGAGUUCUACAGUCCGACGAUC … UGGAAUUCUCGGGUGCCAA", "Target sequence (chain)": "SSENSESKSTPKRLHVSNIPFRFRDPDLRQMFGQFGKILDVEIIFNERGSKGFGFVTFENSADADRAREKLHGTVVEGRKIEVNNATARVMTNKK"}
{"Sequence": "CCCGUGUUUCCUAAGGACUCCGCAGACAAGGCUUUCACCUGCGUGUUCAUCUGUGGGUCAUCGAGGCUGGAGCAGUUCCUGCUGAGUCAGGCUCUGUCCUAGAGUGGGCA", "RBNS enrichment (R)": 0.227}
{"Sequence": "AAAGAAUACAUAGCCAAAGCAAUGUUACUACCCAUCAUACUGUUUAAAAAUGGAUAGAAAAUAAAAAUAUAAGUUAGUAUGGUUUAAUUCUGAAAAUACAAAUUAUCUUC", "RBNS enrichment (R)": 0.642}
{"Sequence": "AUAUGGCAAUUCAUAGUUGAGCUGUGUUGGCUUGAGGGAUGCUGCUGCUAAGUAGGGUGGACUGGGCAAAGCAAUGAACUUUCAGGCAUUCGAGCUACUUCAUCUGCAUA", "RBNS enrichment (R)": 0.469}
{"Sequence": "UUUGCUUUUGUUUGCUUUAGCUUGGUAACAGCGGUGAAUAGAGUGUAGUGUAAGUGGAGAACCAGGAUCCUGAGAUGAGCUUGAGCUUUAAAAACUUGGGACUAUACAUG", "RBNS enrichment (R)": 0.461}
{"Sequence": "CUCUCCAAGAGGCCUCAGUCCCCAAGACUGCCACCAGUCUACACAUACAGCAGCCCCCUGGACAGAAUCAGCAUUUCAGCUCAGCUGGCCUGGGAUGGGCCAGGCUGGUC", "RBNS enrichment (R)": 0.315}
{"Sequence": "GAUUUGCUAAAUGUGGUCUUUGCCAACUAAAAUCUGAGAUGCAGCUUUAGACCCUGACACGUGGAUGUUCUUCUGCAGUCUUGUCUGCUAAGUUUUAAAUAAAGUCAUGA", "RBNS enrichment (R)": 0.444}
{"data": "Other studies, line by line"}
{"Molecule": "PhoQ, residues 284 288 289 292 302 303 SLANIV", "target": "PhoP, residues 12 14 15 18 19 LYFRQ (Escherichia coli, UniProt P23836)", "assay": "Sort-seq, measured: YFP reporter", "test system": "E. coli", "setting": "PhoQ-PhoP variant library, with: 10 µM Mg2+", "how to read": "relative to: high Mg2+ state, higher = stronger signaling", "measurement": "fold induction", "result": 8.74}
{"note": "A few entries again (study 2):"}
{"Sequence": "CTCGACGC", "E-score": -0.202}
{"Sequence": "ATTTACCG", "E-score": 0.0861}
